Experimental data pooled from the literature.
Several values in a cell are separate wells, animals, samples, runs or records.
EGFR T790M: Epidermal growth factor receptor (EGFR, Homo sapiens, UniProt P00533, T790M)
EGFR: Epidermal growth factor receptor (EGFR, Homo sapiens, UniProt P00533)
EGFR L858R: Epidermal growth factor receptor (EGFR, Homo sapiens, UniProt P00533, L858R)
EGFR del752-759: Epidermal growth factor receptor (EGFR, Homo sapiens, UniProt P00533, del752-759)
EGFR L858R/T790M: Epidermal growth factor receptor (EGFR, Homo sapiens, UniProt P00533, L858R/T790M)

Compound | target | test | conditions | how to read | endpoint | result
CNC(=O)C1CCN(c2cc(C)c(F)cc2NC(=O)c2ccc(-c3cc(O)ccc3C)c(C)c2)CC1 | EGFR T790M | binding, competition with immobilised ligand | 1 µM | – | remaining binding | 100%
Nc1ncc2c(n1)-c1c([nH]c3ccc(C4=CCOCC4)cc13)CCC2 | Epidermal growth factor receptor (EGFR, Homo sapiens, UniProt P00533, A750P/del747-749) | binding, competition with immobilised ligand | 1 µM | – | remaining binding | 82%
CNC(=O)C[C@H](Cc1ccc(C#N)cc1)NC(=O)c1cc(-c2ccc(CN[C@H](C)c3ccc(C)cc3)o2)ccc1Cl | EGFR | enzyme activity, inhibitor | 1 µM | – | activity vs control | 104%
CC(C)=CC1OC(C)(C)C2C=C3C(=O)C(Cl)=CC(O)C3C3C(O)C4OC4C(=O)C132 (stereo not shown) | EGFR L858R | cell-free assay, competition with immobilised ligand | 10 µM | – | remaining binding | 95%
CC(C)[C@H](NC(=O)[C@H](CCC(=O)O)NC(=O)[C@H](CCC(=O)O)NC(=O)[C@@H]1Cc2ccc(O)cc2CN1C(=O)[C@H](CCC(=O)O)NC(=O)[C@H](CC(=O)O)NC(=O)[C@H](CC(=O)O)NC(=O)[C@H](CCC(=O)O)NC(=O)c1ccc2c(c1)C1(OC2=O)c2ccc(O)cc2Oc2cc(O)ccc21)C(N)=O | EGFR | enzyme activity, substrate | – | – | Km | 18.3 µM and 18 µM
CCN1CCN(Cc2ccc(NC(=O)c3ccc(C)c(NC(=O)c4cncc(-c5cccs5)c4)c3)cc2C(F)(F)F)CC1 | Epidermal growth factor receptor (EGFR, Homo sapiens, UniProt P00533, G719C) | binding, competition with immobilised ligand | 1 µM | – | remaining binding | 0.1%
Cc1cnc2nc1Nc1cccc(c1)COC/C=C/COCc1cc(ccc1OCCN1CCOCC1)N2 | EGFR L858R | – | concentration not given | relative to: untreated control | remaining activity | 82%
C=CC(=O)N1CCCC(n2c(=O)c3ncccc3n(Cc3ccc(Oc4ccccc4)cc3)c2=O)C1 (stereo not shown) | EGFR del752-759 | cell-free assay, competition with immobilised ligand | 1 µM | – | remaining binding | 92%
CCN1CCN(Cc2ccc(C(=O)Nc3ccc(C)c(NCc4cnc5[nH]ccc5c4OC)c3)cc2C(F)(F)F)CC1 | EGFR T790M | binding, competition with immobilised ligand | 1 µM | – | remaining binding | 39%
Cc1ccc(-c2c(/C=C(\C#N)C(=O)NC(C)C)n(CCCO)c3ncnc(N)c23)cc1 | EGFR L858R | cell-free assay, competition with immobilised ligand | 1 µM | – | remaining binding | 66%
CNC1C[S+]2CC[S+]3CC[S+](C1)[Ru-4]321([N]=C=S)[n]2c3ccc(OC)cc3c3c4c(c5cc(F)c[n+]1c5c32)C(=O)NC4=O (stereo not shown) | EGFR del752-759 | KinomeScan | 0.1 µM | relative to: untreated | remaining binding | 98%
C=CC(=O)N1CCc2ccc(-n3c(=O)ccc4cnc5ccc(-c6cnn(C)c6)cc5c43)cc21 | EGFR L858R/T790M | KINOMEscan | 1 µM | relative to: DMSO control | remaining binding | 72%
C=C1CCCCCCCCCC(CO)C1=O (stereo not shown) | EGFR L858R | cell-free assay | 10 µM | – | remaining signal | 100%
COc1c(Cl)cccc1Nc1c(-c2ccncc2C#C[C@@]2(C)CCCN2C(=O)/C=C/CN(C)C)[nH]c2c1C(=O)NCC2 | Epidermal growth factor receptor (EGFR, Homo sapiens, UniProt P00533, L861Q) | cell-free assay, competition with immobilised ligand | 3 µM | – | remaining binding | 0%
O=C(O)CCC(=O)c1cccc(NS(=O)(=O)c2c[nH]c3ncccc23)c1 | EGFR | kinase activity, radiometric | 10 µM | – | remaining activity | 98%
COc1ccc(NC(=O)Nc2ccc3c(c2)C(=O)N(C(C)CO)CC(C)C(CN(C)Cc2ccc4c(c2)OCO4)O3)cc1 (stereo not shown) | EGFR L858R/T790M | kinase activity | 0.03 µM, T790M/L858R | relative to: control | remaining activity | 95%
COc1c(OCCCN2CCOCC2)ccc2c1N=C(NC(=O)c1cnc(N)nc1)N1CCN=C21 | EGFR | kinase activity, inhibitor | 1 µM | relative to: untreated control | remaining activity | 100%
O=C=[N][Ru-4]123([n]4c5ccc(O)cc5c5c6c(c7cc(F)c[n+]1c7c54)C(=O)NC6=O)[S+]1CC[S+]2CC[S+]3CC1 (stereo not shown) | EGFR L858R | enzyme activity | 100 nM, human enzyme, added: 10 µM ATP | relative to: untreated | remaining activity | 88%
COCC12C(=O)NC3C4(C(OC)CC1O)C1CC5(O)C(OC)C(O)C(OC(C)=O)(C1C5OC(=O)c1ccccc1)C3(O)C(OC)C24 (stereo not shown) | EGFR T790M | kinase activity, inhibitor, ProQinase kinase profiling | 25 µM | relative to: control | remaining activity | 103% and 104%
